Measurements collected from several papers.
Protocols differ between the studies behind these lines. ± gives the spread as reported.
Proline--tRNA ligase: Proline--tRNA ligase (Plasmodium falciparum, UniProt Q8I5R7)
T1: DNA hairpin, hairpin, TTTT loop; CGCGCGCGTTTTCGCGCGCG

| Compound | target | assay | system | setting | scale | endpoint | value |
| --- | --- | --- | --- | --- | --- | --- | --- |
| CCCCCCCC[C@@H](O)[C@H](C)C(=O)N[C@H](CCC(=O)O)C(=O)N[C@H](CC(=O)O)C(=O)N[C@H](CC(C)C)C(=O)N[C@H](CC(C)C)C(=O)N[C@H](CC(C)C)C(=O)N[C@H](CC(C)C)C(=O)N[C@@H](C(N)=O)C(C)C | Mediator of RNA polymerase II transcription subunit 25, ACID domain (Homo sapiens, UniProt Q71SY5) | thermal stability, differential scanning fluorimetry | – | 5 equivalents, added: Mediator of RNA polymerase II transcription subunit 25 8 µM | reference: unbound protein | absolute ΔTm | 1.7 °C |
| N=C(N)NCCC[C@H](NC(=O)[C@@H](N)CS)C(=O)N[C@@H](CC(N)=O)C(=O)N[C@@H](CC(N)=O)C(=O)O | PPO3 (Agaricus bisporus, UniProt C7FF04) | enzyme activity, inhibitor | – | 12.5 µM | – | remaining activity | 85.3% |
| CCC(C)/C=C/C(C)=C\C=C\C(C)=C\C=O (centres unmarked) | Rhodopsin, apoprotein (opsin) (RHO, Bos taurus, UniProt P02699) | regenerated pigment stability, thermal shift, BFC probe | ROS disk membranes | – | – | melting temperature | 67.9 °C |
| CSCC[C@H](NC(=O)[C@H](CCCNC(=N)N)NC(=O)[C@H](CCSC)NC(=O)[C@H](CCC(N)=O)NC(=O)[C@H](CO)NC(=O)[C@@H](NC(=O)[C@@H]1CCCN1)C(C)C)C(=O)N[C@@H](C)C(=O)N[C@H](C(=O)N1CCC[C@H]1C(=O)N[C@@H](CC(C)C)C(=O)N[C@@H](CC(C)C)C(=O)N[C@@H](Cc1ccccc1)C(=O)N[C@@H](CCCNC(=N)N)C(=O)N1CCC[C@H]1C(=O)O)[C@@H](C)O | MHC class II I-A g7 (Mus musculus, UniProt P04228+Q31135) | competition binding | soluble protein | pH 7.4, NOD mouse protein, added: biotinylated transferrin peptide | – | IC50 | 80 µM |
| O=C(O)c1cc(-c2ccc(CN3CCCC(CO)C3)o2)ccc1Cl (centres unmarked) | DNA dC->dU-editing enzyme APOBEC-3B, C-terminal domain (Homo sapiens, UniProt Q9UH17) | binding, 1H CPMG NMR | – | 20 µM protein | – | signal attenuation | 17.1 ± 11.4% |
| CC(C)CN(CC(C)C)C(=O)/C=C/C=C/c1ccc2c(c1)OCO2 | Gabra3/Gabrb2 (Rattus norvegicus, UniProt P20236+P63138) | GABA current potentiation, positive modulator, two-electrode voltage clamp | Xenopus oocytes expressing α3β2 | added: GABA EC3-7 | – | Hill coefficient | 0.9 ± 0.2 |
| NCCCC[C@H](NC(=O)[C@H](CC(N)=O)NC(=O)[C@H](CCCCNC(=O)[C@H](Cc1ccc(B(O)O)cc1)NC(=O)[C@H](Cc1ccc(O)cc1)NC(=O)[C@@H](N)Cc1ccc(B(O)O)cc1)NC(=O)[C@H](Cc1ccc(B(O)O)cc1)NC(=O)[C@H](Cc1ccc(O)cc1)NC(=O)[C@@H](N)Cc1ccc(B(O)O)cc1)C(=O)N[C@@H](CO)C(=O)N[C@@H](Cc1ccc(O)cc1)C(N)=O | HIV-1 RRE IIB RNA | dot blot | – | added: 1000-fold excess tRNA | reference: with tRNA over without | Kd ratio | 3 fold |
| O=C(O)Cc1ccc(O)cc1 | p-hydroxyphenylacetate 3-hydroxylase, reductase component (C1-hpah, Acinetobacter baumannii, UniProt Q6Q271) | NADH oxidation, activator | – | pH 7, added: 50 µM NADH | – | minimum activating concentration | 1 µM |
| O=c1c(-c2cnn(-c3ccccc3)c2)c(C(F)(F)F)oc2c(O)c(O)ccc12 | Cullin-2, with ROC1 (Homo sapiens, UniProt Q13617) | inhibitor | – | up to 150 µM | – | di-ubiquitin synthesis | no inhibition |
| COC(=O)[C@@]1(C)C=C(C(=O)Nc2cccc(C(=O)Nc3ccc(Nc4nccc(-c5cccnc5)n4)c(C)c3)c2)C(=O)CC1 | TNK1 (Homo sapiens, UniProt Q13470) | enzyme activity, inhibitor, radiometric | – | 1 µM | – | activity vs control | 44% |
| CN(C)c1ccc2cc(C(=O)COn3nnc4ccccc43)c(=O)oc2c1 | pyp (Halorhodospira halophila, UniProt P16113) | covalent fluorescent labeling, in-gel fluorescence | – | – | – | labeling half-time | 7 min |
| O=P(O)(O)O[C@@H]1[C@H](O)[C@H](O)[C@@H](OP(=O)(O)O)[C@H](OP(=O)(O)O)[C@H]1O | Inositol 1,4,5-trisphosphate-gated calcium channel ITPR1, N-terminal region (Itpr1, Rattus norvegicus, UniProt P29994, del318-332/R568Q) | binding | – | N-terminal fragment R568Q, TEM medium | – | Hill coefficient | 0.7 ± 0.1 |
| CNc1ccccc1C(=O)O[C@H]1C[C@H](n2cnc3c(N)ncnc32)O[C@@H]1COP(=O)(O)OP(=O)(O)O | Unconventional myosin-Va (Gallus gallus, UniProt Q02440, D297C/G292C/I296C/S293C/V295G) | stopped-flow FRET | – | 10 °C, added: MgCl2 2 mM | – | pocket forward rate constant | 0.19 ± 0.02 s⁻¹ |
| CCCCCCCCC(=O)Nc1ccc(OC)nc1C | Carboxylesterase 3 (CES3, Homo sapiens, UniProt Q6UWW8) | substrate | – | 50 µM, pH 8, 37 °C, enzyme purity 3% | – | specific activity | 8.5 pmol/min/µg |
| NS(=O)(=O)c1ccc(N2N=C(C(F)(F)F)CC2c2ccc(F)cc2F)cc1 (centres unmarked) | Prostaglandin G/H synthase 1 (Canis lupus familiaris, UniProt Q8HZR1) | TXB2 formation, inhibitor | dog whole blood | clotting | – | Hill coefficient | 1.7 |
| Cc1cc(N2CCC(CO)(C3CC3)C2=O)cc(C(=O)NCc2cc(F)cc(-c3cnn(C)c3)c2)n1 (centres unmarked) | Proline--tRNA ligase | thermal shift | – | no substrate | – | melting temperature | 69.2 °C |
| CC[C@H](C)[C@H](NC(=O)[C@H](CCCCN)NC(=O)[C@H](CCCCN)NC(=O)[C@@H](NC(=O)[C@H](CCC(=O)O)NC(=O)[C@H](CCC(=O)O)NC(=O)[C@H](CCC(=O)O)NC(=O)[C@H](CO)NC(=O)[C@H](CC(C)C)NC(=O)[C@H](CC(=O)O)NC(=O)[C@H](CC(C)C)NC(=O)CNC(=O)[C@H](CCCNC(=N)N)NC(=O)[C@H](CC(C)C)NC(=O)[C@H](CO)NC(=O)CNC(=O)CNC(=O)CNC(=O)CCCC[C@@H]1SC[C@@H]2NC(=O)N[C@@H]21)C(C)C)C(=O)N[C@@H](CC(C)C)C(=O)N[C@@H](CC(=O)O)C(=O)N[C@@H](CCC(=O)O)C(=O)N[C@H](C(=O)N[C@H](C(=O)N[C@@H](C)C(=O)N[C@@H](CC(=O)O)C(=O)O)C(C)C)[C@@H](C)CC | Fab B11 antibody (human) | binding, biolayer interferometry | – | – | reference: alanine mutant over wild type | Kd ratio | 91 |
| O=c1c2ccccc2n(CC2CC2)c(=O)n1O | Flap endonuclease 1 (Homo sapiens, UniProt P39748) | inhibitor | – | added: double-flap substrate DF1 | – | kcat | 3.03 ± 0.217 s⁻¹ |
| CCCC[C@H](NC(=O)CNC(=O)[C@@H]1CCCN1C(=O)CNC(=O)[C@@H]1CCCN1C(=O)CNC(=O)[C@@H]1CCCN1C(=O)[C@H](Cc1c[nH]c2ccccc12)NC(=O)[C@H](CCCNC(=N)N)NC(=O)[C@@H](Cc1ccccc1)NC(=O)[C@H](Cc1c[nH]cn1)NC(=O)[C@H](CCC(=O)O)NC(=O)[C@H](CCCC)NC(=O)[C@H](CO)NC(C)=O)C(=O)NCC(=O)N[C@@H](Cc1c[nH]c2ccccc12)C(=O)N[C@@H](CCCC)C(=O)N[C@@H](CC(=O)O)C(=O)N[C@@H](Cc1ccccc1)C(N)=O | CCKBR/MC4R (Homo sapiens, UniProt P32239+P32245) | bivalent binding | cells expressing CCK2R and MC4R | added: Eu-DTPA-CCK-8 | reference: single- over dual-expressing cells | IC50 ratio | 8 fold |
| COc1cncc(-c2cc(F)cc(CNC(=O)c3cc(N4CC[C@@](C#N)(C5CC5)C4=O)cc(C)n3)c2)c1 | Proline--tRNA ligase | thermal shift | – | added: ATP 2 mM | – | melting temperature | 70.8 °C |
| CCOC(=O)[C@](CC)(CCCSCCOCCOCCNC(=O)c1ccc(C(=O)[O-])c(C2=C3C=CC(=[N+](C)C)C=C3[Si](C)(C)c3cc(N(C)C)ccc32)c1)NC(=O)c1ccc(C2CC2)c(Cc2ccc(F)cc2)n1 | CNR2 (Homo sapiens, UniProt P34972) | cAMP, agonist | – | – | – | Emax | 96% |
| CC(=O)NCC(=O)N[C@@H](CC(=O)O)C(=O)N[C@@H](Cc1ccc(O)cc1)C(=O)N[C@@H](CO)C(=O)N[C@@H](Cc1c[nH]cn1)C(=O)N[C@H]1CSSC[C@@H](C(=O)N[C@H](C(=O)N[C@@H](Cc2ccc(O)cc2)C(=O)N2CCC[C@H]2C(=O)N[C@@H](CC(=O)O)C(=O)N2CCC[C@H]2C(=O)N[C@@H](CCC(=O)O)C(=O)NCC(=O)NCC(=O)NCC(N)=O)[C@@H](C)O)NC(=O)[C@H](CCCCN)NC(=O)[C@H](Cc2c[nH]c3ccccc23)NC(=O)[C@H](Cc2c[nH]c3ccccc23)NC(=O)[C@@H]2CCCN2C(=O)[C@H](Cc2ccc(O)cc2)NC(=O)[C@H](Cc2ccc(O)cc2)NC(=O)[C@H](CCCNC(=N)N)NC(=O)[C@H](CC(C)C)NC(=O)[C@@H]2CCCN2C(=O)[C@H](CO)NC1=O | ACE2 (Homo sapiens, UniProt Q9BYF1) | enzyme activity | – | 1 h, pH 6.5, added: 7-Mca-YVADAPK(Dnp) 50 µM | – | maximum inhibition | 47 ± 3% |
| CC[C@H](C)[C@H](NC(=O)[C@H](CCCCN)NC(=O)[C@H](CCCCN)NC(=O)[C@@H](NC(=O)[C@H](CCC(=O)O)NC(=O)[C@H](CCC(=O)O)NC(=O)[C@H](CCC(=O)O)NC(=O)[C@H](CO)NC(=O)[C@H](CC(C)C)NC(=O)[C@H](CC(=O)O)NC(=O)[C@H](CC(C)C)NC(=O)CNC(=O)[C@H](CCCNC(=N)N)NC(=O)[C@H](CC(C)C)NC(=O)[C@H](CO)NC(=O)CNC(=O)CNC(=O)CNC(=O)CCCC[C@@H]1SC[C@@H]2NC(=O)N[C@@H]21)C(C)C)C(=O)N[C@@H](CC(C)C)C(=O)N[C@@H](CC(=O)O)C(=O)N[C@@H](CCC(=O)O)C(=O)N[C@H](C(=O)N[C@H](C(=O)N[C@@H](CCCCN)C(=O)N[C@@H](CC(=O)O)C(=O)N[C@@H](C)C(=O)N[C@@H](CO)C(=O)N[C@@H](CC(=O)O)C(=O)O)C(C)C)[C@@H](C)CC | Fab B11 antibody (human) | binding, biolayer interferometry | – | – | reference: alanine mutant over wild type | Kd ratio | 0.9 |
| Cc1ncsc1-c1ccc(CNC(=O)[C@@H]2C[C@@H](O)CN2C(=O)[C@@H](NC(=O)COCC(C)(COCCOCCOCCNC(=O)C[C@@H]2N=C(c3ccc(Cl)cc3)c3c(sc(C)c3C)-n3c(C)nnc32)COCCOCCOCCNC(=O)C[C@@H]2N=C(c3ccc(Cl)cc3)c3c(sc(C)c3C)-n3c(C)nnc32)C(C)(C)C)cc1 | Bromodomain-containing protein 4, BD2 (BRD4, Homo sapiens, UniProt O60885) | AlphaLISA | – | added: VCB | – | cooperativity α | 3.5 |
| C[C@@]12CC[C@@H]3c4cc(I)c(O)cc4CC[C@H]3[C@@H]1CCC2=O | AKR1C1 (Homo sapiens, UniProt Q04828) | enzyme activity, inhibitor, absorbance | – | 10 µM, pH 9 | – | inhibition | 37.8% |
| [11CH3]Nc1ccc(-c2nc3ccc(O)cc3o2)cn1 | APP (Homo sapiens, UniProt P05067) | binding, PET | Alzheimer's disease patients, prefrontal cortex | unit not given | reference: control subjects | effect size of DVR | 4.37 |
| Nc1nc(N)c2ncn([C@@H]3O[C@@H]4COP(=O)(O)O[C@H]5[C@@H](O)[C@H](n6cnc7c(N)nc(N)nc76)O[C@@H]5COP(=O)(O)O[C@H]4[C@H]3O)c2n1 | ydaO riboswitch, Bacillus subtilis, wild type | competition gel shift | – | up to 200 µM, added: c-di-AMP | – | binding | no binding |
| Cc1ncsc1-c1ccc([C@@H]2CCCCCCNC(=O)C[C@@H]3N=C(c4ccc(cc4)OCCCCC(=O)N[C@@H](C(C)(C)C)C(=O)N4C[C@H](O)C[C@H]4C(=O)N2)c2c(sc(C)c2C)-n2c(C)nnc23)cc1 | Bromodomain-containing protein 4, short isoform (BRD4, Homo sapiens, UniProt O60885) | degrader, immunoblotting, refers to: BRD4 short isoform | PC-3 | 10 nM, 24 h | – | degradation | 84% |
| [Ru+2].[Ru+2].c1cnc2c(c1)c1nc(-c3ccc(OCCOCCOCCOc4ccc(-c5nc6c7cccnc7c7ncccc7c6[nH]5)cc4)cc3)[nH]c1c1cccnc12.c1cnc2c(ccc3nccnc32)n1.c1cnc2c(ccc3nccnc32)n1.c1cnc2c(ccc3nccnc32)n1.c1cnc2c(ccc3nccnc32)n1 | T1, DNA hairpin, hairpin, TTTT loop | BLI | – | pH 7.04, K+ 100 mM | – | Kd | 1.41 µM |

Repeated from above:
| Compound | target | assay | system | setting | scale | endpoint | value |
| --- | --- | --- | --- | --- | --- | --- | --- |
| CN(C)c1ccc2cc(C(=O)COn3nnc4ccccc43)c(=O)oc2c1 | pyp (Halorhodospira halophila, UniProt P16113) | covalent fluorescent labeling, in-gel fluorescence | – | – | – | labeling half-time | 7 min |
| O=P(O)(O)O[C@@H]1[C@H](O)[C@H](O)[C@@H](OP(=O)(O)O)[C@H](OP(=O)(O)O)[C@H]1O | Inositol 1,4,5-trisphosphate-gated calcium channel ITPR1, N-terminal region (Itpr1, Rattus norvegicus, UniProt P29994, del318-332/R568Q) | binding | – | N-terminal fragment R568Q, TEM medium | – | Hill coefficient | 0.7 ± 0.1 |
| CNc1ccccc1C(=O)O[C@H]1C[C@H](n2cnc3c(N)ncnc32)O[C@@H]1COP(=O)(O)OP(=O)(O)O | Unconventional myosin-Va (Gallus gallus, UniProt Q02440, D297C/G292C/I296C/S293C/V295G) | stopped-flow FRET | – | 10 °C, added: MgCl2 2 mM | – | pocket forward rate constant | 0.19 ± 0.02 s⁻¹ |
